# Measurements gathered from unrelated publications.
# Values joined by “and” are separate records of one study, mostly repeats; a detail may differ.
Molecule,tested on,assay,test system,setting,how to read,quantity,value
capreomycin,Mycolicibacterium smegmatis,resazurin microtiter,mc2155,"24 h, 37 °C, 100 µg/mL carbenicillin medium",,MIC,1.1 µg/mL
"GCCATGCTTT (PNA, CPP-conjugated)",Salmonella enterica Typhimurium,"RT-qPCR, measured: mrcB","peptide, SL1344","concentration not given, 30 min, sublethal dose",baseline: mock,mRNA level reduction,37%
GSGAGSETVV,human MAGI1-3/6 PDZ construct (MBP fusion),automated holdup,"peptide, purified PDZ protein","concentration not given, unit not given","baseline: biotin control resin, higher = stronger binding",binding intensity,0.0513
gentamicin,Escherichia coli,time-kill,,"1 x MIC, 120 min",,viable count,0 log CFU/mL
CTCATACAGT,Salmonella enterica Typhimurium,broth microdilution,"peptide, SL1344","range over 0.3-10 µM, 24 h, 37 °C, Mueller-Hinton broth",,MIC,10 µM
maraviroc,HIV-1 ADA,"viral replication, measured: HIV-1 p24 antigen","HIV-infected mice, plasma","ip, 120 mg/kg twice daily, 3 weeks post-infection",,plasma p24 level,54 pg/mL
GSGAGIATEV,human MAGI1-2/6 PDZ construct (MBP fusion),automated holdup,"peptide, crude extract","concentration not given, corrected by standard peak, unit not given","baseline: biotin control resin, higher = stronger binding",binding intensity,-0.00635
CTCATTGTCT,Salmonella enterica Typhimurium,broth microdilution,"peptide, SL1344","range over 0.3-10 µM, 24 h, 37 °C, Mueller-Hinton broth",,MIC,> 10 µM
colistin,Acinetobacter baumannii,broth microdilution,ATCC 19606,,,MIC,1 µg/mL
CTGTTACTCT,Salmonella enterica Typhimurium,"RNA-seq, measured: pagN","peptide, SL1344","5 µM, 15 min",baseline: water,log2 fold change,1.56
colistin,Morganella morganii,broth microdilution,clinical isolate RKI 81/15,,,MIC,> 64 µg/mL
Polymyxin B,Staphylococcus aureus,DiSC3(5) fluorescence,,"concentration not given, 39 min",higher = more depolarisation,membrane depolarisation,619 a.u. and 590 a.u. and 858 a.u.
CTCATACTGA,Salmonella enterica Typhimurium,"RNA-seq, measured: pagN","peptide, SL1344","5 µM, 15 min",baseline: water,log2 fold change,3.12
colistin,Escherichia coli,checkerboard,tetracycline-resistant (pBR322),"0.0625 µM, together with: tetracycline",,tetracycline MIC,56.2 µM
colistin,Acinetobacter baumannii,,clinical isolate 1A2,,,MIC,1 µg/mL
milbemycin oxime,Saccharomyces cerevisiae,cell growth,"Pdr5 deleted, Cdr1 overexpressed",2^-2.966 µg/mL,,OD600,1 and 0.962 and 0.994
CTCTAACTCT,Salmonella enterica Typhimurium,broth microdilution,"peptide, SL1344","range over 0.3-10 µM, 24 h, 37 °C, Mueller-Hinton broth",,MIC,> 10 µM
ivermectin,human adenovirus C5,reporter virus,A549,"concentration not given, 72 h, highest dose, monotreatment",baseline: untreated control,viral progeny production,35%
CTCAATCTCT,Salmonella enterica Typhimurium,"RNA-seq, measured: SL1344_3728 transcript","peptide, SL1344","5 µM, 15 min",baseline: untreated control,log2 fold change,1.88
"CTTTCATGCG (PNA, CPP-conjugated)",Salmonella enterica Typhimurium,"RT-qPCR, measured: ftsI","peptide, SL1344","concentration not given, 30 min, sublethal dose",baseline: mock,mRNA level reduction,36%
Polymyxin B,Escherichia coli,,ATCC 25922,"15.6 µg per disc, 24 h, 37 °C",,inhibition zone diameter,14 mm
DAPT,Enterococcus faecalis,,ATCC 29212,,,MIC,6.2 µg/mL
LVHYTHCGSLGV,Epstein-Barr virus,BamHI-W qPCR,"peptide, B-NDG humanized mouse, EBV-infected, peripheral blood","20 mg/kg, day 28",,EBV DNA copy number,0 copies and 3160 copies
TCACTATCTC,Salmonella enterica Typhimurium,broth microdilution,"peptide, SL1344","range over 0.3-10 µM, 24 h, 37 °C, Mueller-Hinton broth",,MIC,> 10 µM
polymyxin B,Escherichia coli,,ATCC BAA-2452,1 × MIC,,time to eradication,4 to 5 h

# Repeated from above:
Molecule,tested on,assay,test system,setting,how to read,quantity,value
milbemycin oxime,Saccharomyces cerevisiae,cell growth,"Pdr5 deleted, Cdr1 overexpressed",2^-2.966 µg/mL,,OD600,1 and 0.962 and 0.994
